Results pooled from the literature.
Compare with care: the assays were run in different laboratories. Values joined by “and” are separate records of one study, mostly repeats; a detail may differ. ± marks the error that the study gave.
Nuclear receptor subfamily 2 group C member 2 ligand-binding domain: Nuclear receptor subfamily 2 group C member 2, ligand-binding domain (Homo sapiens, UniProt P49116)
Chain of UniProt P49116 (whole entry, looked up): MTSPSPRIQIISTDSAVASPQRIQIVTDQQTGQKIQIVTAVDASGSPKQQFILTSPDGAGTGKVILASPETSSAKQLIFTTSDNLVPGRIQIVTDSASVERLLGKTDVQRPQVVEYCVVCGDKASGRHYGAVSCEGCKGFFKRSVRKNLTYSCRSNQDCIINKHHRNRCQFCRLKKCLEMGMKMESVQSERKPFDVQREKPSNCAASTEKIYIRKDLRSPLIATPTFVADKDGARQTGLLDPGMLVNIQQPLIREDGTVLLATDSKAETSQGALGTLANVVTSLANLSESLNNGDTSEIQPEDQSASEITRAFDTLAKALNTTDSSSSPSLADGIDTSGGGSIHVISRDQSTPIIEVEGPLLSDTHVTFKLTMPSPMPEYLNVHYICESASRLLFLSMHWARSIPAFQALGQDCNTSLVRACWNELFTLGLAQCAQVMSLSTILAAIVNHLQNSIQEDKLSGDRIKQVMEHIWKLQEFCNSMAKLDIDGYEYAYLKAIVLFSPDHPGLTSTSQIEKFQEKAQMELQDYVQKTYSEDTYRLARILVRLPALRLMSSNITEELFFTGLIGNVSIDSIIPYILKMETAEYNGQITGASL
Chain of UniProt P61981 (whole entry, looked up): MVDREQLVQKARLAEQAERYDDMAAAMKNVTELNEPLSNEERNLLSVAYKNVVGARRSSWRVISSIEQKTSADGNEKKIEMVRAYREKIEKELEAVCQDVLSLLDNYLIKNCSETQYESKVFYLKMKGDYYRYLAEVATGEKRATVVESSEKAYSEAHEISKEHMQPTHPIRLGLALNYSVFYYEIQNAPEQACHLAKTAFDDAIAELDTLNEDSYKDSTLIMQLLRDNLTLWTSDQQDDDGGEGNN
Chain of UniProt Q04206 (whole entry, looked up): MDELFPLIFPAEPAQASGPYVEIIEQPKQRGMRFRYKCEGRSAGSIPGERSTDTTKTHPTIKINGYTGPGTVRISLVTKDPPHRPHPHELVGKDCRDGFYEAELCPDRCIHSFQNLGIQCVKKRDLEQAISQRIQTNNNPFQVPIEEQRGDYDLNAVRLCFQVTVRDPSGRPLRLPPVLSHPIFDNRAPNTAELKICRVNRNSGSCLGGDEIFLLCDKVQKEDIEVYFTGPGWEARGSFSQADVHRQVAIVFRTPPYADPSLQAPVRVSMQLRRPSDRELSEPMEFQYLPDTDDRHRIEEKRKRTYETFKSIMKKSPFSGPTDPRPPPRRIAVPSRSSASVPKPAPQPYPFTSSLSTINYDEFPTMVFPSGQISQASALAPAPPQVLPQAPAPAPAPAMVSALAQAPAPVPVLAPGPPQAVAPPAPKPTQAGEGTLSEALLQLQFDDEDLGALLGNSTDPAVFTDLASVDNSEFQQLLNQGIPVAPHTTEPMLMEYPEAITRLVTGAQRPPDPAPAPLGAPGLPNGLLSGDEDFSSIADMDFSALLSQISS

Under “log2 fold change”, `Cn1cc(-c2ccc(-c3cncc(Cl)c3N3CCC4(CCNC4=O)CC3)cc2)cn1` is recorded as 3.22 (COLO 205; gene expression, microarray, measured: ASS1 mRNA; concentration not given, 6 h; reference: untreated cells).
`CCn1cc(-c2cc(Cn3ccoc3=N)cc3c2CCN([C@@H](C)c2cc(OC)ccn2)C3=O)c(C(F)(F)F)n1` gave an EC50 of 0.00521 µM (G-361; cell growth, inhibitor; 120 h).
`O=Cc1ccc(C(=O)N2CCOCC2)cc1` has an EC50 of > 1000 µM (YWHAG/RELA, phospho-Ser45 p65 peptide (Homo sapiens, UniProt P61981+Q04206); ternary complex formation, stabilizer, fluorescence anisotropy).
`CNCC[C@@H](Oc1ccccc1C)c1ccccc1` gave a Kd of 0.000122 µM (Nuclear receptor subfamily 2 group C member 2 ligand-binding domain; SPR imaging).
For `CNCc1ccc(-c2[nH]c3cc(F)cc4c3c2CCNC4=O)cc1`, the viability was 160% (OCI-Ly1; 1 µM, 120 h).
With `COc1cc2ncnc(Nc3ccc(Oc4ccccc4)cc3C)c2cc1OC.O=C(O)C(F)(F)F` the fractional effect was 39% (COLO 205 (BRAF V600E); resazurin; 3 µM, 72 h, together with: trametinib 0 nM).
The viability of `Cc1cc(Nc2nn(-c3ccccc3)c(=O)c3ccccc23)n[nH]1` is reported as 104% (OCI-Ly1; 0.5 µM, 120 h).
`CCn1cc(-c2cc(Cn3ccnc3)cc3c2CCN([C@H](c2cc(OC)ccn2)C2CC2)C3=O)c(C(F)(F)F)n1` has an EC50 of 11.1 µM (RERF-LC-Ad2; cell growth, inhibitor; 120 h).
With `COc1cc(/C=C/C(=O)N2CCC=CC2=O)cc(OC)c1OC` the mRNA level was 53.4 ± 0.8% (MDA-MB-468; quantitative RT-PCR, measured: NFE2L1; 30 µM, 8 h; reference: untreated cells).
`Cc1cccc(-c2[nH]c(CNc3ccccc3F)nc2-c2ccc3ncnn3c2)n1` has an XTT absorbance of 3.4 E-1 and 2.8 E-1 and 2.7 E-1 (pomalidomide-resistant MM1.S cells; XTT; 1.25 µM; higher = more viable cells).
`O=C(/C=C/C=C/C=C/C1CCCCC1)NC1=C[C@@](O)(/C=C/C=C/C=C/C(=O)NC2=C(O)CCC2=O)[C@@H]2O[C@@H]2C1=O` gave a GI50 of 13.3 µM (HSC-4; cell growth, CellTiter-Glo; 78 h).
With `Oc1cc(O)c2cc(O)c(-c3cc(O)c(O)c(O)c3)[o+]c2c1` the viability was 165% (OCI-Ly1; 1 µM, 120 h).
With `COc1cnc2cccc(N3CCc4c(cc(Cn5ccnc5C)cc4-c4cn(C)nc4C(F)(F)F)C3=O)c2c1` the EC50 was 0.0583 µM (SW900; cell growth, inhibitor; 120 h).
With `COCCCOc1cc(C[C@@H](C[C@H](N)[C@@H](O)C[C@H](C(=O)NCC(C)(C)C(N)=O)C(C)C)C(C)C)ccc1OC` the Kd was 0.00564 µM (Nuclear receptor subfamily 2 group C member 2 ligand-binding domain; SPR imaging).
`Cc1cc(/N=N/c2ccc(S(=O)(=O)Nc3ccccn3)cc2)c(N)cc1O` gave a viability of 183% (OCI-Ly1; 0.1 µM, 120 h).

For quick reference, copied from above:
With `COc1cc2ncnc(Nc3ccc(Oc4ccccc4)cc3C)c2cc1OC.O=C(O)C(F)(F)F` the fractional effect was 39% (COLO 205 (BRAF V600E); resazurin; 3 µM, 72 h, together with: trametinib 0 nM).
The viability of `Cc1cc(Nc2nn(-c3ccccc3)c(=O)c3ccccc23)n[nH]1` is reported as 104% (OCI-Ly1; 0.5 µM, 120 h).
